Published values collected from several papers.
Each numbered part is a random draw from the data of one study; scales do not carry over between parts. “And” joins repeats or separate records; there may be more than shown.
UniProt Q01959, sequence (whole entry, looked up): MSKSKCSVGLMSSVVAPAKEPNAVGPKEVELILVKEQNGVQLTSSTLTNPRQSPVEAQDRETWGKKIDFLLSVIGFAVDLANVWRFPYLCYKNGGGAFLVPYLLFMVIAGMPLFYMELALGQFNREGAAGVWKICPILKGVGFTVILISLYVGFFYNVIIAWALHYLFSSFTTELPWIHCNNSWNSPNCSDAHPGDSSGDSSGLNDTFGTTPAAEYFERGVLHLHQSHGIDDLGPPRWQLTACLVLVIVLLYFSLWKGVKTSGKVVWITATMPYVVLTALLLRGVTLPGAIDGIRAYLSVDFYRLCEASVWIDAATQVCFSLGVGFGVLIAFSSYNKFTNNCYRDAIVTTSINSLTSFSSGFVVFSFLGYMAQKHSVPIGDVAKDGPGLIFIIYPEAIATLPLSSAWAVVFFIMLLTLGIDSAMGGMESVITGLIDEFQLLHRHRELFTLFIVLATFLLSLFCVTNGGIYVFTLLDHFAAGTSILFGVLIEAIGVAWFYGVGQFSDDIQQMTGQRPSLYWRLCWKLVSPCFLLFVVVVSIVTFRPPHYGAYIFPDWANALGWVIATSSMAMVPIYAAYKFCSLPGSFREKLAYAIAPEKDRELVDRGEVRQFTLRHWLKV
UniProt P11229, sequence (whole entry, looked up): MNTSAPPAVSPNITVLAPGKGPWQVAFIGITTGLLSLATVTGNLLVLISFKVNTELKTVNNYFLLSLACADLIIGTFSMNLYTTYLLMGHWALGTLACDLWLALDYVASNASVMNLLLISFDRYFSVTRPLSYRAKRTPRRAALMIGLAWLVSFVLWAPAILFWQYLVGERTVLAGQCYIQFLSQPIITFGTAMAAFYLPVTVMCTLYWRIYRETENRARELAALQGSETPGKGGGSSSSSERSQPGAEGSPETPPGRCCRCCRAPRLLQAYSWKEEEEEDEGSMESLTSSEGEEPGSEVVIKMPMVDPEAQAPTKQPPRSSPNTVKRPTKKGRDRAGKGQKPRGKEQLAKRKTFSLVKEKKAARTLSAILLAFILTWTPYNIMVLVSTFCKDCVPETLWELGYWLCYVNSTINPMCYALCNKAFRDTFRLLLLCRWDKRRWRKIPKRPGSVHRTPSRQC
UniProt P23975, sequence (whole entry, looked up): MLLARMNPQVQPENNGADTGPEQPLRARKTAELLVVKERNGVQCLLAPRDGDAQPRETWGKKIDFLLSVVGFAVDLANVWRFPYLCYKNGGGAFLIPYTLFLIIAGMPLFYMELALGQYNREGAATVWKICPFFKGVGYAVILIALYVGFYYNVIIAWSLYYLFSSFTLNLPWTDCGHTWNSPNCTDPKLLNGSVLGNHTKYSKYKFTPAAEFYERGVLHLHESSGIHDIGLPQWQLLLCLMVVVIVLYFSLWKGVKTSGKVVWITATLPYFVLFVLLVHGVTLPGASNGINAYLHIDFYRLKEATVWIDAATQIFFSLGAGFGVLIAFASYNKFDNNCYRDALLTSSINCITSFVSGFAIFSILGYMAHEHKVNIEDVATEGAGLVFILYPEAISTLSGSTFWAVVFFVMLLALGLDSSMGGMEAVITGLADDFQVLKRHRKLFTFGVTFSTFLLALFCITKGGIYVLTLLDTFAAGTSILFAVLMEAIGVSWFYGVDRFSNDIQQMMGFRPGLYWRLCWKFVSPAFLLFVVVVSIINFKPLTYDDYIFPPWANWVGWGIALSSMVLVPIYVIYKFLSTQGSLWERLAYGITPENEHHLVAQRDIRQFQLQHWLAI
UniProt P20309, sequence (whole entry, looked up): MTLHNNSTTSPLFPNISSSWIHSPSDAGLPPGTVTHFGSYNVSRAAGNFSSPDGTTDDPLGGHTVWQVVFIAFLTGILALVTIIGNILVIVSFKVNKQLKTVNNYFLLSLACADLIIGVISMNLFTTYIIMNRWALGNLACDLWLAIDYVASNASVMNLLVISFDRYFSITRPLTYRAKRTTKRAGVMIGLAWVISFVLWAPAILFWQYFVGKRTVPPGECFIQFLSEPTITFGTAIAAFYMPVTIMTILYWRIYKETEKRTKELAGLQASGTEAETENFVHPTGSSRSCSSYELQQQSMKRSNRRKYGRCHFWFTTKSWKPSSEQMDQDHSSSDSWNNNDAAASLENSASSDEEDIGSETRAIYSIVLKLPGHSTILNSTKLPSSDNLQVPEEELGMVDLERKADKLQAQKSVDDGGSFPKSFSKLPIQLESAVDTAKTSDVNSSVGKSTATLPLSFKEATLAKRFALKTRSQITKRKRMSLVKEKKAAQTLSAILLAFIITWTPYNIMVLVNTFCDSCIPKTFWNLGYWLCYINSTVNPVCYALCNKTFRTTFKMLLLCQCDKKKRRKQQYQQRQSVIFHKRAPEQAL
UniProt P41145, sequence (whole entry, looked up): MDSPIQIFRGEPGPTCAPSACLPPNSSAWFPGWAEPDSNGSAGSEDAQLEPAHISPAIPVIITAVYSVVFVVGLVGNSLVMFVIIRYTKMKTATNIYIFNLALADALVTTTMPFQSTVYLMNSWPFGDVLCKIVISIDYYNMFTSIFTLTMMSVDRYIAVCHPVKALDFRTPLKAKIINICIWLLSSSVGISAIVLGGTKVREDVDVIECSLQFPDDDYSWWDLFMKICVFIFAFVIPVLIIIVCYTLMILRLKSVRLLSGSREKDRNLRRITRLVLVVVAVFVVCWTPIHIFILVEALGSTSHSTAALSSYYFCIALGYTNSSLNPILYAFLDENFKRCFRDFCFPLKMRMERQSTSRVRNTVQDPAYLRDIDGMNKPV

Series 1 — cell line: HEK-293T/ACE2; tested at: concentration not given; time: 16 (unit not given); baseline: vehicle
SMILES	viability [%]
CCCCC(=O)O[C@]1(C(=O)CO)CC[C@H]2[C@@H]3CCC4=CC(=O)CC[C@]4(C)[C@H]3[C@@H](O)C[C@@]21C	102
CC1=C(/C=C/C(C)=C/C=C/C(C)=C/C=C/C=C(C)/C=C/C=C(C)/C=C/C2=C(C)CCCC2(C)C)C(C)(C)CCC1	99.2
Cc1cnc(C(=O)N[C@H]2CCCCC/C=C\[C@@H]3C[C@@]3(C(=O)NS(=O)(=O)C3CC3)NC(=O)[C@@H]3C[C@@H](Oc4nc5ccccc5c5ccccc45)CN3C2=O)cn1	97.4
Cc1ccc(Cl)c(Nc2ccccc2C(=O)O)c1Cl	103
CC=CC(=O)N(CC)c1ccccc1C (mixture of isomers)	100
CCN(CC)CCNC(=O)c1c(C)[nH]c(/C=C2\C(=O)Nc3ccc(F)cc32)c1C	98.7
CCCCOc1ccc(OCCCN2CCOCC2)cc1	100

Series 2 — tested at: 10 µM
SMILES: O=C(NCc1ncc(C(F)(F)F)cc1Cl)c1ccc2c(c1)C1(CCS(=O)(=O)CC1)[C@H](C1CC1)N2S(=O)(=O)c1ccc(F)cc1
target	read-out	inhibition [%]
Muscarinic acetylcholine receptor M1 (CHRM1, Homo sapiens, UniProt P11229)	ligand displacement	-2.96
Muscarinic acetylcholine receptor M3 (CHRM3, Homo sapiens, UniProt P20309)	ligand displacement	18.1
Sodium-dependent dopamine transporter (SLC6A3, Homo sapiens, UniProt Q01959)	cell-free assay	-20.2
Sodium-dependent noradrenaline transporter (SLC6A2, Homo sapiens, UniProt P23975)	cell-free assay	1.03
Kappa-type opioid receptor (OPRK1, Homo sapiens, UniProt P41145)	ligand displacement	14.4

Series 3 — cell line: mouse MPNST tumor cells; technique: high-content nuclear imaging; item: cell number; tested at: 10 µM; time: 12 h; notes: mean of 2 replicates; baseline: plate mean; direction: higher = more cells
Compound	nuclei count
CCn1cc(C(=O)O)c(=O)c2cc3c(cc21)OCO3	2.62 z-score
CC(=O)[C@H]1CC[C@H]2[C@@H]3CC[C@@H]4C[C@H](O)CC[C@]4(C)[C@H]3CC[C@]12C	-0.45 z-score
Oc1cc(Cl)ccc1Oc1ccc(Cl)cc1Cl	-0.753 z-score
CC(C)(N)Cc1ccccc1	1.58 z-score
CC[C@@]1([C@@H]2O[C@@H]([C@H]3O[C@@](O)(CO)[C@H](C)C[C@@H]3C)C[C@@H]2C)CC[C@H]([C@]2(C)CC[C@]3(C[C@H](O)[C@@H](C)[C@@H]([C@@H](C)[C@@H](OC)[C@H](C)C(=O)O)O3)O2)O1	2.5 z-score
CC(=O)N(C)c1cccc(-c2ccnc3c(C(=O)c4cccs4)cnn23)c1	0.208 z-score
O=c1[nH]c2ccccc2n1C1CCN(CCCC(c2ccc(F)cc2)c2ccc(F)cc2)CC1	-0.427 z-score and -7.05 z-score

Series 4 — cell line: A-375; tested at: 100 µM; time: 36 h
Structure (SMILES)	viability [%]
CC(C)c1c(CN(C)C(C)Cc2ccccc2)n(C)n(-c2ccccc2)c1=O (stereo not drawn)	79.6
C#C[C@]1(O)CC[C@H]2[C@@H]3CCC4=CC(=O)CC[C@]4(C)[C@H]3CC[C@@]21C	80.1
C[C@]12CC[C@H](O)CC1=CC[C@@H]1[C@@H]2CC[C@]2(C)C(=O)CC[C@@H]12	43.9
COc1cc2c(cc1OC)C13CCN4CC5=CCOC6CC(=O)N2C1C6C5CC43 (stereo not drawn)	96.4
COc1cccc2c1cc([N+](=O)[O-])c1c(C(=O)O)cc3c(c12)OCO3	42.7

Some of these lines once more (series 3):
Compound	nuclei count
O=c1[nH]c2ccccc2n1C1CCN(CCCC(c2ccc(F)cc2)c2ccc(F)cc2)CC1	-0.427 z-score and -7.05 z-score
